Experimental data pooled from the literature.
Compare with care: the assays were run in different laboratories. Several values in a cell are separate wells, animals, samples, runs or records. ± gives the spread as reported.

For O=C1CCP(=S)(c2ccccc2)CC1, “reduction of cell number” read 27 to 31% (HaCaT; trypan blue; IC50, 72 h; reference: untreated).
O=C1N(Cc2ccccc2Cl)c2ccccc2C12NN=C(c1ccccc1)S2 (stereo not shown) gave a fold change of 1.51 (MDA-MB-468; gene expression array, measured: HMGB1 mRNA; 10 µM, 12 h; reference: untreated, down).
N.N.[Cl][Pt][Cl]: “annexin V-positive cells” 23.9% (SAS; annexin V/PI staining; 50 µM, 24 h, mean).
The inhibition of CC(=O)O[C@H]1C(=O)[C@@]2(C)[C@H]([C@H](OC(=O)c3ccccc3)[C@]3(O)C[C@H](OC(=O)[C@H](O)[C@@H](NC(=O)c4ccccc4)c4ccccc4)C(C)=C1C3(C)C)[C@]1(OC(C)=O)CO[C@@H]1C[C@@H]2O is reported as > 90% (HEK293T; cytotoxicity, CCK-8; 12.5 µM, 72 h).
CN1CCN(C2(CNC3CCN(c4cccc(-c5cc6cc(F)ccc6[nH]5)c4)CC3)CCC2)CC1 gave a GI50 of 2110 nM (UACC-62).
With C[C@]12CC[C@H](O)CC1=CC[C@@H]1[C@@H]2CC[C@]2(C)C(n3cnc4ccccc43)=CC[C@@H]12 the GI50 was 380 nM (LNCaP, C4-2B and CWR22Rv1; cell growth, MTT; mean of three lines).
For Cc1nn(-c2nc3c(F)cc(F)cc3s2)c(O)c1C(c1ccc(C(F)(F)F)cc1)c1c(C)nn(-c2nc3c(F)cc(F)cc3s2)c1O, the viability was 101% and 110% and 105% and 100% (RAW-ISG; CCK-8; 1.563 µM).
Cc1ccc2cc(N3CCC4(O)C(=O)c5cc(C)c(C)cc5N=C34)ccc2n1 (stereo not shown) has an EC50 of 680 nM (COS-7; cytokinesis; 24 h).
With Cn1cncc1C1=CN(c2ncnc3[nH]cnc23)CCS1 the CC50 was 138000 nM (UACC-62; melanoma cell line).
For C[C@]12CC[C@H](O)C[C@H]1CC[C@@H]1[C@@H]2CC[C@]2(C)[C@@H](c3ccc(=O)oc3)CC[C@]12O, the mRNA level was 0.206 and 0.173 and 0.174 (MCF7; RT-qPCR, measured: GREB1; 50 nM, 48 h, without estradiol, unit not given; reference: untreated).
Nc1ncnc2c1ncn2[C@@H]1O[C@@H]2COP(=O)(O)O[C@H]3[C@@H](O)[C@H](n4cnc5c(=O)[nH]cnc54)O[C@@H]3COP(=O)(O)O[C@H]2[C@H]1O — result for “pathway fold enrichment”: 7.01 (HFF-1; RNA sequencing, measured: Regulated Necrosis; upregulated pathway; reference: Zika virus alone).
CN1CCN(S(=O)(=O)c2cc([N+](=O)[O-])ccc2N(CCOS(C)(=O)=O)CCOS(C)(=O)=O)CC1 gave an IC50 of 22000 nM (sample A B-ALL PDX cells; cell viability; ex vivo; 48 h, added: AKR1C3 inhibitor 1 µM, 1 h pretreatment).
C/C=C(/C)C(=O)O[C@H]1C(C)=C2[C@H]([C@@H]1OC(=O)CCCCCCC)[C@@](C)(OC(C)=O)C[C@H](OC(=O)CCC)[C@@]1(O)[C@H]2OC(=O)[C@@]1(C)O — result for “normalized enrichment score”: 1.9 (HEK-293T; RNA-seq GSEA, measured: Hallmark p53 pathway; 500 nM, 6 h; direction not given).
Under “early apoptotic cells”, Cn1cc2cc(C(F)(F)c3nnc4ccc(-c5cnn(C6CC6)c5)nn34)c(F)cc2n1 is recorded as 14.9% and 21.6% and 15.2% (MKN-45; annexin V/PI flow cytometry; 200 nM, 48 h).
Cc1cccc(-c2cccc(C)n2)n1.Cc1cccc(-c2cccc(C)n2)n1.F[P-](F)(F)(F)(F)F.F[P-](F)(F)(F)(F)F.[Ru+2].c1ccc2cc(-c3nc4c5cccnc5c5ncccc5c4[nH]3)ccc2c1 gave a phototoxicity index of 1 (SK-MEL-28; normoxia, added: blue light 453 nm, 100 J/cm2; reference: dark over light EC50).
C[C@H]1[C@H](C)CC[C@]2(C(=O)O)CC[C@]3(C)C(=CC[C@@H]4[C@@]5(C)CC[C@H](O)C(C)(C)[C@@H]5CC[C@]43C)[C@H]12 gave a cell survival of 57.6 ± 0.84% (3T3; cell growth, MTT; 25 µg/mL, 48 h).
Oc1ccc(C(c2ccc(O)cc2)(C(F)(F)F)C(F)(F)F)cc1 — result for “G2 phase cells”: 17.9 ± 3.53% (HepG2 spheroids; Hoechst flow cytometry; 1 µM, 24 h).
Cc1ccc2c(c1)C=Cc1cc(C)ccc1C2c1cn(Cc2ccc(C(=O)Nc3nn[nH]n3)o2)c(=O)[nH]c1=S: “effect on signal” “no effect” (N2a; fluorescence signal increase, inhibitor; 1 µM, added: BzATP 300 µM).
For Oc1cc(Cl)ccc1Oc1ccc(Cl)cc1Cl, “point of departure” read 6.31 µM (HepG2; extracellular flux, measured: oxygen consumption rate; 6 h, distribution mode 2).
The TGI of CC(C)N1CCC(NC2CCN(c3cccc(-c4cc5cc(F)ccc5[nH]4)c3)CC2)CC1 is reported as 3480 nM (SNB-19; NCI60 CNS cancer panel).
Under “S phase cells”, CC(c1ccccc1)(c1ccc(O)cc1)c1ccc(O)cc1 is recorded as 9.67 ± 0.98% (HepG2 spheroids; Hoechst flow cytometry; 1 µM, 96 h).
With COc1c(CCC[P+](c2ccccc2)(c2ccccc2)c2ccccc2)cc2c(c1OC)OCO2.[I-] the TGI was -5.26 log M (UACC-62; SRB).
With Oc1ccc(C2(c3ccc(O)cc3)c3ccccc3-c3ccccc32)cc1 the viability was ~35% (HepG2 spheroids; MTS; 80 µM, 96 h; reference: solvent control).
The GI50 of Nc1ncc(-c2nc(N3CCOCC3)nc(N3CCOCC3)n2)c(C(F)F)n1 is reported as 288 nM (FaDu; 72 h).
O=C(Nc1ccc2[nH]nc(-c3ccncc3)c2c1)[C@@H]1CCN(CC(=O)N2CCN(c3ccc(-c4ncccn4)cc3)CC2)C1 gave a PI-positive cells of 7.5 count and 8.08 count (HCT116; IncuCyte; concentration not given, 28 (unit not given)).
C[C@@H](O)[C@H]1C(=O)N2C(C(=O)O)=C(S[C@@H]3CN[C@H](C(=O)N(C)C)C3)[C@H](C)[C@H]12 has an MIC of ≤ 0.06 µg/mL (Escherichia coli DH5α expressing KPC-25; bacterial growth).
For O=S(=O)(c1ccc(O)cc1)c1ccc(O)cc1, “G1 phase cells” read 72.2 ± 3.21% (HepG2 spheroids; Hoechst flow cytometry; 40 µM, 24 h).
With CCN(CC)c1ccc(C=NNC(=O)CSc2nc3ccccc3c(=O)n2Cc2ccc(S(N)(=O)=O)cc2)c(O)c1 the CC50 was > 100000 nM (SNB-19; NCI five-dose screen).
CC(C)[C@H](N)C(=O)N1CCC[C@H]1B(O)O has a viability of 34.3% and 21.6% (EA.hy926; cell death, CellTiter-Glo; concentration not given, compound alone).
With COc1c(C)c2c(c(O)c1C/C=C(\C)CCC(=O)O)C(=O)OC2 the IC50 was 3980 nM (SU-DHL10; cell proliferation; blood cancer).
With CC(C)=CCc1c(O)cc(O)cc1-c1cc2ccc(O)c(CC=C(C)C)c2o1 the cell survival was 92.7 ± 1.4% (3T3; cell growth, MTT; 1.8 µg/mL, 48 h).
Under “CD4 surface recovery”, Cc1ccc(-n2sc3ccccc3c2=O)cc1 is recorded as 3.4 ± 2.2% (HIV-infected PBMCs; 1.0 µM, two donors).
N.N.[Cl][Pt][Cl] has a TGI of 1240 nM (SK-MEL-28; cell growth, SRB; dark, normoxia).
Oc1cc(O)cc(-c2cc3ccc(O)cc3o2)c1 gave a cell survival of 74.58 ± 0.42% (3T3; cell growth, MTT; 7.25 µg/mL, 48 h).
The inhibition of COc1ccc([C@H]2c3[nH]c4ccc(Cl)cc4c3CCN2C(=O)Oc2ccc(Cl)cc2)cc1 is reported as 53% (CD19+ B cells with PBMC; cytokine secretion, measured: s-IL-6; 0.01 µM, 72 h, BioMAP BT system).
For CC(=O)OCOC(=O)CN(CC(=O)OCOC(C)=O)c1ccccc1OCCOc1ccccc1N(CC(=O)OCOC(C)=O)CC(=O)OCOC(C)=O, the inhibition was 37% (N2a; fluorescence signal increase, inhibitor, live-cell imaging; 30 µM, activation phase, added: BzATP 300 µM).
For COc1cnc(OC)n2nc(NS(=O)(=O)c3c(OCC(F)F)cccc3C(F)(F)F)nc12, the inhibition was 0.39 ± 0.19% (HEK293T; cytotoxicity, CCK-8; 12.5 µM, 72 h).
For COc1ccc2c(c1)[nH]c1c(C)nccc12, the DNA methylation was 94.6% (DU-145; bisulfite pyrosequencing, measured: RASSF1A promoter CpG site 13; 10 µM, 16 h).
COc1cc(CCC[P+](c2ccccc2)(c2ccccc2)c2ccccc2)c(OC)c2c1OCO2.[I-] gave a TGI of -5.07 log M (Hs-578T; SRB).
C/C=C(/C)C(=O)O[C@H]1C(C)=C2[C@H]([C@@H]1OC(=O)CCCCCCC)[C@@](C)(OC(C)=O)C[C@H](OC(=O)CCC)[C@@]1(O)[C@H]2OC(=O)[C@@]1(C)O gave a protein level of 1.59 and 1.39 and 1.44 (HEK293; western blot, measured: phospho-eIF2α over total eIF2α; 3 µM, 6 h, unit not given; reference: mock).

Excerpt of the above:
The TGI of CC(C)N1CCC(NC2CCN(c3cccc(-c4cc5cc(F)ccc5[nH]4)c3)CC2)CC1 is reported as 3480 nM (SNB-19; NCI60 CNS cancer panel).
Under “S phase cells”, CC(c1ccccc1)(c1ccc(O)cc1)c1ccc(O)cc1 is recorded as 9.67 ± 0.98% (HepG2 spheroids; Hoechst flow cytometry; 1 µM, 96 h).
With COc1c(CCC[P+](c2ccccc2)(c2ccccc2)c2ccccc2)cc2c(c1OC)OCO2.[I-] the TGI was -5.26 log M (UACC-62; SRB).
